Earlier results as cited in several papers.
Lines come from different studies, so protocols differ. Values joined by “and” are separate records of one study, mostly repeats; a detail may differ. Numbers after ± are the reported error.

Sequences of proteins named here, by UniProt entry; tags and fusion partners are left off.
UniProt P22303, whole entry, looked up: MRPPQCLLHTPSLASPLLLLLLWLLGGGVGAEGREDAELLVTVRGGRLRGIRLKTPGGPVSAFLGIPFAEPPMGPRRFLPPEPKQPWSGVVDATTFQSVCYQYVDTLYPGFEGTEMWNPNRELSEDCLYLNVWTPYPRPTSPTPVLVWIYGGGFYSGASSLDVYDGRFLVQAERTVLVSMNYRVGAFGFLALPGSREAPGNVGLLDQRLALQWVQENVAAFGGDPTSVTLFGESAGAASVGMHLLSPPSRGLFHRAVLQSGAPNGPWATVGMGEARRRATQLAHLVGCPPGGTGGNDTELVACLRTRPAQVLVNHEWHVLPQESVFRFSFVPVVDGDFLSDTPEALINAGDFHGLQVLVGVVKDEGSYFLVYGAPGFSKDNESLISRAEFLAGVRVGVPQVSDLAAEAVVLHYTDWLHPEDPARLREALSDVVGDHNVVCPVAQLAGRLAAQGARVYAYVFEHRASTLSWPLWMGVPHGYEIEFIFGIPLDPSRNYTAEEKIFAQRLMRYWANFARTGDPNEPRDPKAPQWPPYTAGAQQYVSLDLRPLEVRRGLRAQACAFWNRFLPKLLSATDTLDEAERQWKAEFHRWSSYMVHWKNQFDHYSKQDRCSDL

CCOP(=S)(CC)Sc1ccccc1 (centres unmarked)
activity (acetylcholinesterase; inhibitor, qHTS; concentration not given): inactive

Nc1nc2nc(C(=O)O)cnc2c(=O)[nH]1
IC50 (ricin A chain): 200 µM and ~200 µM and 230 µM

CCOP(=O)(OCC)Oc1ccc([N+](=O)[O-])cc1
AChE activity (AChE; chick cultured myoblasts; concentration not given; baseline: untreated control): 2 fold

Cl[C@H]1[C@H](Cl)[C@@H](Cl)[C@@H](Cl)[C@H](Cl)[C@H]1Cl
inhibition (GABA-A receptor; binding; 1 µM, with: [3H]EBOB): 66%

COC(=O)[C@@H]1C[C@H](OC(=O)c2ccccc2)C(=O)[C@H]2[C@@]1(C)CC[C@H]1C(=O)O[C@H](c3ccoc3)C[C@]21C
EC50 (mu opioid receptor; agonist, functional): 0.5 µM

CCOP(=O)(OCC)Oc1ccc([N+](=O)[O-])cc1
ki (ACHE (Homo sapiens, UniProt P22303); enzyme activity, inhibitor): 15800 M⁻¹ s⁻¹

O=[As]c1ccccc1 (centres unmarked)
Y2 binding (rat Y2 receptor; rat forebrain cell aggregates; concentration not given; baseline: untreated): ≤ 3 fold

O=C(NCc1cccs1)[C@@H]1CN(C(=O)c2cccnc2)CCN1c1ccc(Cl)c(Cl)c1
IC50 (human protease panel; off-target): > 50 µM

C=C(C)[C@@H]1[C@H]2OC(=O)[C@@H]1[C@]1(O)C[C@H]3O[C@]34C(=O)O[C@H]2[C@]14C
inhibition (GABA-A receptor; binding; 1 µM, with: [3H]EBOB): 51%

CNC(=O)ON=CC(C)(C)SC
half-life: 30 to 40 min

COP(=O)(OC)OC=C(Cl)Cl
AChE activity recovered (AChE; mouse brain homogenate; concentration not given, 2 h, spontaneous reactivation; baseline: original activity): 50%

CC(C)(C)[C@H](NC(=O)C(F)(F)F)C(=O)N1C[C@H]2[C@@H]([C@H]1C(=O)N[C@H](C#N)C[C@@H]1CCNC1=O)C2(C)C
Ki (SARS-CoV-2 main protease T304I): 0.0009 µM

O=CN1CC[C@]23c4c5ccc(O)c4O[C@H]2[C@@H](O)C=C[C@H]3[C@H]1C5
Ki (mu opioid receptor; binding): 0.42 µM

CN(C)C(=O)Oc1ccc[n+](C)c1
IC50 (HeLa; cytotoxicity, MTT): 380 µM

COc1ccc([C@@H]2CC(=O)c3c(O)cc(O)cc3O2)cc1O
IC50 (Replicase polyprotein 1ab, 3C-like proteinase (rep, Severe acute respiratory syndrome-related coronavirus, UniProt P0C6X7); 3CLpro cleavage, inhibitor, cell-based): 8.3 µM

O=C(NN1C(=O)[C@@H]2[C@@H]3C=C[C@@H]([C@H]4C[C@@H]34)[C@@H]2C1=O)c1ccc(C(F)(F)F)cc1
EC50 (monkeypox virus; viral replication; Vero E6): 0.006 ± 0.0002 µM

Nc1nc2cc[nH]c2c(=O)[nH]1
IC50 (ricin toxin A chain; enzyme activity): 1400 µM

Repeated from above:
CN(C)C(=O)Oc1ccc[n+](C)c1
IC50 (HeLa; cytotoxicity, MTT): 380 µM

Nc1nc2nc(C(=O)O)cnc2c(=O)[nH]1
IC50 (ricin A chain): 200 µM and ~200 µM and 230 µM

Cl[C@H]1[C@H](Cl)[C@@H](Cl)[C@@H](Cl)[C@H](Cl)[C@H]1Cl
inhibition (GABA-A receptor; binding; 1 µM, with: [3H]EBOB): 66%
